Published values from different studies.
Each line is one published result; not all experiments were run side by side.

`COc1ncnn2ccc(-c3cnc4nc(C)n(Cc5nnc([C@@H](C)F)o5)c4c3)c12` — result for “patients with stomatitis”: 0% (human; oral, dose not given, grade 4).
`CN(C)C(=O)c1cc2cnc(Nc3ccc(N4CCNCC4)cn3)nc2n1C1CCCC1`: “patients with adverse event” 53.1% (measured: Neutropenia, AESI; human, HR+/HER2− advanced breast cancer; oral, dose not given, grade 3, CTCAE v4.03).
For `O=C1Nc2cc3[nH]nc(-c4ccncc4)c3cc2CN1Cc1ccccc1`, “patients with rash” read 0% (CTCAE v4.03; human, relapsed or refractory advanced solid tumours; intravenous, 3.6 mg/kg, pooled schedules).
`Cn1cncc1-c1c(F)cncc1NC(=O)c1c(N)nn2cc(F)cnc12`: “patients grade ≥3 Hyperkalemia” 2% (human patients; oral, dose not given, all doses).
`C=CC(=O)Nc1cc(Nc2nccc(Nc3cc(Cl)c(F)cc3C(C)(C)O)n2)c(OC)cc1N1CC[C@@H](N(C)C)C1` — result for “patients with mouth ulceration”: 0% (human patients; oral, 50 mg, treatment-emergent adverse events).
`COc1ccc(-c2c(-c3ccc(C#N)c(F)c3)nc(N3CCC(N)CC3)n(C)c2=O)cc1F` — result for “patients with serious TEAE”: 0% (measured: pleural effusion; human patients; oral, 60 mg, dose expansion).
`C[C@]1(O)C[C@@](N)(c2ccc(-c3nc4n(c3-c3ccccc3)COc3ccncc3-4)cc2)C1` — result for “patients with Diarrhea TEAE”: 33.3% (human, advanced or metastatic solid tumours; once daily, dose escalation total, any grade).
`C[C@@H]1OC(=O)NN=C1c1ccc(-c2ccc(F)cc2)c(C(F)(F)F)c1`: “patients with adverse event” 0% (phase I trial, measured: Diarrhoea all grades; human patients; 5 mg loading then 0.25 mg daily).
For `CNC(=O)c1cc(Oc2ccc(NC(=O)Nc3cc(C(C)(C)C)nn3-c3ccc4ncccc4c3)c(F)c2)ccn1`, “patients with related malignant hypertension” read 6% (phase clinical trial; human patients; oral, 100 mg twice daily, at dose onset).
`Cc1cn([C@H]2O[C@@H](CO[P@@](=O)(N[C@@H](C)C(=O)OC(C)C)Oc3ccccc3)[C@H](O)[C@H]2F)c(=O)[nH]c1=O`: “patients with TEAE” 0% (measured: Flu; human; 10 mg).

For quick reference, copied from above:
For `O=C1Nc2cc3[nH]nc(-c4ccncc4)c3cc2CN1Cc1ccccc1`, “patients with rash” read 0% (CTCAE v4.03; human, relapsed or refractory advanced solid tumours; intravenous, 3.6 mg/kg, pooled schedules).
